Published values from different studies.
Protocols differ between the studies behind these lines. Values joined by “and” are separate records of one study, mostly repeats; a detail may differ. ± marks the error that the study gave.

Structure (SMILES)	cell line	assay	conditions	how to read	quantity	value
Oc1ccc(C2(c3ccc(O)cc3)c3ccccc3-c3ccccc32)cc1	HepG2 spheroids	Hoechst flow cytometry	0.01 µM, 96 h		S phase cells	9.2 ± 2.56%
Nc1ncnc2c1ncn2[C@@H]1O[C@@H]2COP(=O)(O)O[C@H]3[C@@H](O)[C@H](n4cnc5c(=O)[nH]cnc54)O[C@@H]3COP(=O)(O)O[C@H]2[C@H]1O	HFF-1	RNA sequencing, measured: Reactome Immune System	upregulated pathways	reference: mock	fold enrichment	2.85
O=c1cc(-c2ccc(O)cc2)oc2cc(O)cc(O)c12	SH-SY5Y Aβ-GFP cells, TRKB shRNA		5 µM		neurite length	27.4 to 31.1 µm
COc1cc(CCC[P+](c2ccccc2)(c2ccccc2)c2ccccc2)c(OC)c2c1OCO2.[I-]	SF-268	SRB			TGI	-4.88 log M
Nc1ncc(-c2nc(N3CCOCC3)nc(N3CCOCC3)n2)c(C(F)F)n1	RPMI-7951		72 h		GI50	135 nM
Cn1nccc1Nc1nccc(-c2ccn([C@H](CO)c3ccc(Cl)c(F)c3)c(=O)c2)n1	HCT116	IncuCyte	concentration not given, 0 (unit not given)		PI-positive cells	1.75 count and 1.92 count and 1.83 count
Cn1cc2cc(C(F)(F)c3nnc4ccc(-c5cnn(C6CC6)c5)nn34)c(F)cc2n1	MKN-45	annexin V/PI flow cytometry	2 nM, 48 h		late apoptotic cells	7.35% and 12.4% and 14.2%
CNC(=O)Oc1cc(C)c(SC)c(C)c1	SH-SY5Y	neurite outgrowth inhibition, phase-contrast imaging	freely dissolved concentration		EC10	0.391 nM
CO[C@H]1[C@H](O)[C@H](O[C@H]2CC[C@@]3(C=O)[C@H](CC[C@@H]4[C@@H]3CC[C@]3(C)[C@@H](C5=CC(=O)OC5)CC[C@]43O)C2)O[C@@H](C)[C@@H]1O	MYBPC3 iPSC cardiomyocytes	plate-normalised	concentration not given, 24 h, hit retest		MyBP-C level	10.1%
COc1ccc(CCN(C)CCCC(C#N)(c2ccc(OC)c(OC)c2)C(C)C)cc1OC (stereo not shown)	KB-3-1		10 µM		intracellular [3H]-paclitaxel	no effect
COc1c(C)c2c(c(O)c1C/C=C(\C)CCC(=O)O)C(=O)OC2	Squamous cancer cell lines	cell proliferation			IC50	282 nM
C[C@@H]1C[C@@H]([C@H](O)CC2CC(=O)NC(=O)C2)C(=O)[C@@H](C)C1	LDR	silenced CMV-GFP reporter derepression, qHTS			EC50	1580 nM
CCN(CC)c1ccc(C=NNC(=O)CSc2nc3ccccc3c(=O)n2Cc2ccc(S(N)(=O)=O)cc2)c(O)c1	RPMI-8226	NCI five-dose screen			CC50	> 100000 nM
Cn1cncc1C1=CN(c2ncnc3[nH]cnc23)CCS1	SF-295		CNS cancer		CC50	> 200000 nM
COc1ccc2c(c1)[nH]c1c(C)nccc12	DU-145	bisulfite pyrosequencing, measured: RASSF1A promoter CpG site 20	concentration not given	reference: vehicle	methylation reduction	1.64%
CC(C)N1CCC(NC2CCN(c3cccc(-c4cc5cc(F)ccc5[nH]4)c3)CC2)CC1	SF-539				GI50	1730 nM
CC(c1ccccc1)(c1ccc(O)cc1)c1ccc(O)cc1	HepG2 spheroids	Hoechst flow cytometry	10 µM, 96 h		G1 phase cells	67.3 ± 3.03%

Structure (SMILES)	cell line	assay	conditions	how to read	quantity	value
O=C1CCP(=S)(c2ccccc2)CC1	SW480	ELISA	IC50, 72 h		IL-6 level	1.2 ± 0.24 pg/mL
CN1CCN(C2(CNC3CCN(c4cccc(-c5cc6cc(F)ccc6[nH]5)c4)CC3)CCC2)CC1	SF-295				CC50	6850 nM
O=c1cc(-c2ccccc2)oc2c(O)c(O)ccc12	SH-SY5Y Aβ-GFP cells, scrambled shRNA		5 µM		neurite process number	3.7 to 3.8
Cc1c2ccncc2c(C)c2c1[nH]c1ccccc12	SH-SY5Y	SRB		reference: normal over SH-SY5Y IC50	selectivity index	0.78
NCCOCC(=O)N1CCCC(C(=O)NCc2nc(-c3ccc(-c4ccc(F)cc4)cc3)cs2)C1 (stereo not shown)	Jurkat	cytotoxicity			EC50	~10000 nM
COC(=O)/C(C)=C\C[C@@]12OC(C)(C)[C@@H]3C[C@@H](C=C4C(=O)c5c(O)c6c(c(CC=C(C)C)c5O[C@]431)O[C@](C)(CCC=C(C)C)C=C6)C2=O	MYBPC3 iPSC cardiomyocytes	plate-normalised	concentration not given, 24 h, hit retest		MyBP-C level	0.4%
Oc1cc(Cl)ccc1Oc1ccc(Cl)cc1Cl	HepG2	protein level, measured: TNFAIP3 (A20)	1 h, distribution mode 1		point of departure	5.37 µM
O=c1c(O)c(-c2ccc(O)c(O)c2)oc2cc(O)cc(O)c12	SH-SY5Y Aβ-GFP cells, TRKB shRNA		5 µM		neurite branch number	1.3 to 1.5
COc1c(CCC[P+](c2ccccc2)(c2ccccc2)c2ccccc2)cc2c(c1OC)OCO2.[I-]	SF-268	SRB			LC50	-4.23 log M
O=C([O-])CN1CCN(CC(=O)[O-])CCN(CC(=O)NCC2CCC(C(=O)N[C@@H](Cc3ccc4ccccc4c3)C(=O)NCCCC[C@H](NC(=O)N[C@@H](CCC(=O)O)C(=O)O)C(=O)O)CC2)CCN(CC(=O)[O-])CC1.[177Lu+3] (stereo partly shown)	22Rv1		24 h, efflux	reference: dose	cell retention	0.94 ± 0.2%
Cc1cc(C(C)(C)c2ccc(O)c(C)c2)ccc1O	HepG2 spheroids	Hoechst flow cytometry	0.10 µM, 96 h		G2 phase cells	21.7 ± 1.17%
C/C=C(/C)C(=O)O[C@H]1C(C)=C2[C@H]([C@@H]1OC(=O)CCCCCCC)[C@@](C)(OC(C)=O)C[C@H](OC(=O)CCC)[C@@]1(O)[C@H]2OC(=O)[C@@]1(C)O	HEK-293T	RNA-seq GSEA, measured: Hallmark xenobiotic metabolism	500 nM, 6 h	direction not given	normalized enrichment score	1.53
Cc1nn(-c2nc3ccc(Cl)c(Cl)c3[nH]2)c(O)c1C1OC(=O)c2ccccc21 (stereo not shown)	RAW-ISG	CCK-8	100 µM		viability	23.9% and 13.1% and 16.6% and 24.1%
O=S(=O)(c1ccc(O)cc1)c1ccc(O)cc1	HepG2 spheroids	flow cytometry	concentration not given, 24 h		cell cycle distribution	no effect
CC[C@@H]1C(=O)N(C)c2cnc(Nc3ccc(C(=O)NC4CCN(C)CC4)cc3OC)nc2N1C1CCCC1	HD-MB03		with: ribociclib 5 µM	reference: ribociclib over DMSO	fold change in IC50	1.29
C[C@]12CC[C@H](O)C[C@H]1CC[C@@H]1[C@@H]2CC[C@]2(C)[C@@H](c3ccc(=O)oc3)CC[C@]12O	MCF7	RT-qPCR, measured: NRIP1	50 nM, 48 h, without estradiol, unit not given	reference: untreated	mRNA level	0.197 and 0.184 and 0.187
O=S(=O)(Nc1ccc(-c2nc3cc(NS(=O)(=O)c4cccc(C(F)(F)F)c4)ccc3o2)cc1)c1cccc(C(F)(F)F)c1	HT-29 colorectal cancer		48 h		EC50	19000 nM

A few entries again:
Structure (SMILES)	cell line	assay	conditions	how to read	quantity	value
CO[C@H]1[C@H](O)[C@H](O[C@H]2CC[C@@]3(C=O)[C@H](CC[C@@H]4[C@@H]3CC[C@]3(C)[C@@H](C5=CC(=O)OC5)CC[C@]43O)C2)O[C@@H](C)[C@@H]1O	MYBPC3 iPSC cardiomyocytes	plate-normalised	concentration not given, 24 h, hit retest		MyBP-C level	10.1%
COc1cc(CCC[P+](c2ccccc2)(c2ccccc2)c2ccccc2)c(OC)c2c1OCO2.[I-]	SF-268	SRB			TGI	-4.88 log M
O=S(=O)(Nc1ccc(-c2nc3cc(NS(=O)(=O)c4cccc(C(F)(F)F)c4)ccc3o2)cc1)c1cccc(C(F)(F)F)c1	HT-29 colorectal cancer		48 h		EC50	19000 nM
